Measured values collected from several papers.
± gives the spread as reported.

With `CCOC(=O)c1nc2ccccc2c(=O)n1Cc1cn(-c2ccccc2F)nn1` the IC50 was 87.1 µg/mL (Candida tropicalis; microbial growth, broth dilution; ATCC750; 24 h).
`Cc1ccc(Nc2nc(-c3cc(C(=O)Nc4cccc(O)c4)no3)cs2)cc1` has an IC50 of over 100 µM (Mycobacteroides abscessus; Bamboo; 72 h).
`CCOCCOc1ccc(-c2c[nH]c(N)n2)cc1` has an IC50 of over 50 µM (Mycolicibacterium smegmatis; biofilm formation, crystal violet).
`CCOC(=O)c1nc2ccccc2c(=O)n1Cc1cn(-c2ccccc2)nn1` gave an IC50 of 74.7 µg/mL (Candida tropicalis; microbial growth, broth dilution; ATCC750; 24 h).
`CCCc1ccc(-c2c[nH]c(N)n2)cc1` has an IC50 of 17.3 µM (Mycolicibacterium smegmatis; biofilm formation, crystal violet).
`C[C@H]1O[C@@H](O[C@H]2[C@@H](O)C[C@H](O[C@H]3[C@@H](O)C[C@H](O[C@H]4CC[C@@]5(C)[C@H](CC[C@@H]6[C@@H]5C[C@@H](O)[C@]5(C)[C@@H](C7=CC(=O)OC7)CC[C@]65O)C4)O[C@@H]3C)O[C@@H]2C)C[C@H](O)[C@@H]1O` has an IC50 of 0.615 ± 0.12 µM (transmissible gastroenteritis virus; viral replication, immunofluorescence; ST cells; 6 h post-infection, pretreated 1 h).
`CCCCOc1ccc(-c2c[nH]c(N)n2)cc1` has an IC50 of 18.7 µM (Mycolicibacterium smegmatis; biofilm formation, crystal violet).
The IC50 of `CCOC(=O)c1nc2ccccc2c(=O)n1Cc1cn(-c2ccccc2[N+](=O)[O-])nn1` is reported as 238 µg/mL (Candida tropicalis; microbial growth, broth dilution; ATCC750; 24 h).
For `COCCOc1ccc(-c2c[nH]c(N)n2)cc1`, the IC50 was over 50 µM (Mycolicibacterium smegmatis; biofilm formation, crystal violet).
`CCOC(=O)c1nc2ccccc2c(=O)n1Cc1cn(-c2cccc(C)c2)nn1` gave an IC50 of 137 µg/mL (Candida tropicalis; microbial growth, broth dilution; ATCC750; 24 h).
With `CCCCOc1ccc(-c2nc(N)[nH]c2C(F)(F)F)cc1` the IC50 was 15.4 µM (Mycolicibacterium smegmatis; biofilm formation, crystal violet).
With `Cc1ccc(Nc2nc(-c3cc(C(=O)Nc4cccc(F)c4)no3)cs2)cc1` the IC50 was over 100 µM (Mycobacteroides abscessus; Bamboo; 72 h).
With `CC(=O)N[C@@H](CS)C(=O)O` the IC50 was over 600 µM (Leishmania tarentolae; cell viability, resazurin; promastigotes, compound alone).
`Cc1ccc(Nc2nc(-c3cc(C(=O)Nc4cccc(C)c4)no3)cs2)cc1` gave an IC50 of over 100 µM (Mycobacteroides abscessus; Bamboo; 72 h).
With `CCOc1ccc(-c2c[nH]c(N)n2)cc1` the IC50 was 27.9 µM (Mycolicibacterium smegmatis; biofilm formation, crystal violet).
`Cc1ccc(C(=O)N(C(=O)c2ccc(C)cc2)C(=S)N2N=C(c3ccc(F)cc3)CC2c2ccc(F)cc2)cc1` (stereo not shown) gave an IC50 of 165 ± 17.2 µM (Artemia; cytotoxicity; 24 h).
For `CCOC(=O)c1nc2ccccc2c(=O)n1Cc1cn(-c2ccc([N+](=O)[O-])cc2)nn1`, the IC50 was 214 µg/mL (Candida tropicalis; microbial growth, broth dilution; ATCC750; 24 h).
`Cc1ccc(Nc2nc(-c3cc(C(=O)Nc4ccc(F)cc4)no3)cs2)cc1` has an IC50 of over 100 µM (Mycobacteroides abscessus; Bamboo; 72 h).
For `Nc1nc2c(ncn2COCCO)c(=O)[nH]1`, the IC50 was 0.4 ± 0.2 µM (human alphaherpesvirus 1; viral GFP expression, live cell imaging; primary fibroblasts, six donors, K26, GFP-expressing; peak infection time).
`CCOC(=O)c1nc2ccccc2c(=O)n1Cc1cn(-c2ccc(Cl)cc2)nn1` has an IC50 of 250 µg/mL (Candida tropicalis; microbial growth, broth dilution; ATCC750; 24 h).
`O=C(Nc1ccccn1)c1cc(-c2csc(Nc3ccccc3)n2)on1` gave an IC50 of over 100 µM (Mycobacteroides abscessus; Bamboo; 72 h).
`COc1ccccc1OCCNCC(O)COc1cccc2[nH]c3ccccc3c12` (stereo not shown) has an IC50 of 51 µM (Lytechinus pictus; caffeine-induced Ca2+ release, inhibitor, Fluo-3 fluorimetry; egg homogenate; 2 min preincubation, together with: caffeine 10 mM).
With `Cc1ccc(C(=O)N(C(=O)c2ccc(C)cc2)C(=S)N2N=C(c3ccc(C)cc3)CC2c2ccc(Cl)cc2)cc1` (stereo not shown) the IC50 was 120 ± 12.2 µM (Artemia; cytotoxicity; 24 h).
`CC(C)=CCC/C(C)=C/CNCCNC1C2CC3CC(C2)CC1C3` (stereo not shown) has an IC50 of 1 µM (Mycobacterium tuberculosis; growth; Erdman).
`chromium mesoporphyrin` gave an IC50 of 58.6 ± 16.4 µM (Leishmania tarentolae; resazurin viability; promastigotes).
For `O=C(O)c1nc2ccccc2c(=O)n1Cc1cn(-c2ccccc2[N+](=O)[O-])nn1`, the IC50 was 521 µg/mL (Candida tropicalis; microbial growth, broth dilution; ATCC750; 24 h).
With `N=C(N)c1ccc(OCCCCCOc2ccc(C(=N)N)cc2)cc1` the IC50 was 0.81 ± 0.17 µM (Leishmania tarentolae; viability, resazurin; promastigotes, YEM/PBS; 48 h, 26 °C, together with: 6 µM hemin).
`O=C(O)c1nc2ccccc2c(=O)n1Cc1cn(-c2ccccc2F)nn1` gave an IC50 of 24.8 µg/mL (Candida tropicalis; microbial growth, broth dilution; ATCC750; 24 h).
With `O=c1c(O)c(-c2cc(O)c(O)c(O)c2)oc2cc(O)cc(O)c12` the IC50 was 2.2 ± 0.3 µM (human alphaherpesvirus 1; viral replication; Vero, F; 24 h).
`Cc1ccc(C(=O)N(C(=O)c2ccc(C)cc2)C(=S)N2N=C(c3ccccc3)CC2c2ccc(C)cc2)cc1` (stereo not shown) gave an IC50 of 124 ± 6.5 µM (Artemia; cytotoxicity; 24 h).
`Cc1ccc(Nc2nc(-c3cc(C(=O)Nc4ccncc4)no3)cs2)cc1` has an IC50 of over 100 µM (Mycobacteroides abscessus; Bamboo; 72 h).

Some of these lines once more:
`C[C@H]1O[C@@H](O[C@H]2[C@@H](O)C[C@H](O[C@H]3[C@@H](O)C[C@H](O[C@H]4CC[C@@]5(C)[C@H](CC[C@@H]6[C@@H]5C[C@@H](O)[C@]5(C)[C@@H](C7=CC(=O)OC7)CC[C@]65O)C4)O[C@@H]3C)O[C@@H]2C)C[C@H](O)[C@@H]1O` has an IC50 of 0.615 ± 0.12 µM (transmissible gastroenteritis virus; viral replication, immunofluorescence; ST cells; 6 h post-infection, pretreated 1 h).
`Cc1ccc(Nc2nc(-c3cc(C(=O)Nc4cccc(O)c4)no3)cs2)cc1` has an IC50 of over 100 µM (Mycobacteroides abscessus; Bamboo; 72 h).
`CCOC(=O)c1nc2ccccc2c(=O)n1Cc1cn(-c2ccccc2)nn1` gave an IC50 of 74.7 µg/mL (Candida tropicalis; microbial growth, broth dilution; ATCC750; 24 h).
